Measured values collected from several papers.
Numbered parts are unrelated; each lists some results of a single study.
Sequence of UniProt P32298 (whole entry, looked up): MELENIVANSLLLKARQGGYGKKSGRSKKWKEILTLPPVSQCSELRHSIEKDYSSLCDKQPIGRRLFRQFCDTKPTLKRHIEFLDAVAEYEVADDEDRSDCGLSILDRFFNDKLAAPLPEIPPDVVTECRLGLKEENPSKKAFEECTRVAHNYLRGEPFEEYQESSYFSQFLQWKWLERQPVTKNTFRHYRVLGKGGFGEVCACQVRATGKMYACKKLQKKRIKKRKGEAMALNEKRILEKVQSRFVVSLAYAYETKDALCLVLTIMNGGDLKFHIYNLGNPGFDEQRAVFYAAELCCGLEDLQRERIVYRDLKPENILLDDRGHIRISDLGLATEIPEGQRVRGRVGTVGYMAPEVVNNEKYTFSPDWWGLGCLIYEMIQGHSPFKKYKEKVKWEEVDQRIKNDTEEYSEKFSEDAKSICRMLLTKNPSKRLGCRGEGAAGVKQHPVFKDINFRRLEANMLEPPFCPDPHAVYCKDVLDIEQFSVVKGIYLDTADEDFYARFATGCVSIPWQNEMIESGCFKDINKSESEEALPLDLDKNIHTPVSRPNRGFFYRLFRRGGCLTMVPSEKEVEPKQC
Sequence of UniProt P28482 (whole entry, looked up): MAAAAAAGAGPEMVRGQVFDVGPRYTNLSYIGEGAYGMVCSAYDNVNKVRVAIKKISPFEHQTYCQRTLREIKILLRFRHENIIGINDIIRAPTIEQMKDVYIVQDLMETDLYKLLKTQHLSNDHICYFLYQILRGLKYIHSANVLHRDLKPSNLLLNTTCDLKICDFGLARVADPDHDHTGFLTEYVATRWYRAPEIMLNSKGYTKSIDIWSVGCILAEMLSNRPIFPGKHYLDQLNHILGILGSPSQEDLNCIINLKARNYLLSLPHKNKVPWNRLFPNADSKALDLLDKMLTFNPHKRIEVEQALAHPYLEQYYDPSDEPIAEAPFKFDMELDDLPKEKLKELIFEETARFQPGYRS
Sequence of UniProt P49761 (whole entry, looked up): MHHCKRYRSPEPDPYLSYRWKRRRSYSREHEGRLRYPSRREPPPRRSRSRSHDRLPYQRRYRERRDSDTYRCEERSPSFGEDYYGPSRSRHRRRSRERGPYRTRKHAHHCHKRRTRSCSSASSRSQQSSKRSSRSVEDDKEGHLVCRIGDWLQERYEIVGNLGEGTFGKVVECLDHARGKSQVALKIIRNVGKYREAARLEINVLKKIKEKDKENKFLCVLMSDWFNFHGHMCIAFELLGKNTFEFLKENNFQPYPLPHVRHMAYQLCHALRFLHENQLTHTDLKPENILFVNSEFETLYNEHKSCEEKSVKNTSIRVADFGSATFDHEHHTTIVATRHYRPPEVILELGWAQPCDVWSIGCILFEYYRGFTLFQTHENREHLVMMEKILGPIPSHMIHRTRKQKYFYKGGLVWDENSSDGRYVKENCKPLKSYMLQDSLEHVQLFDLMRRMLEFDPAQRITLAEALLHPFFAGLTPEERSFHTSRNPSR
Sequence of UniProt Q7KZI7 (whole entry, looked up): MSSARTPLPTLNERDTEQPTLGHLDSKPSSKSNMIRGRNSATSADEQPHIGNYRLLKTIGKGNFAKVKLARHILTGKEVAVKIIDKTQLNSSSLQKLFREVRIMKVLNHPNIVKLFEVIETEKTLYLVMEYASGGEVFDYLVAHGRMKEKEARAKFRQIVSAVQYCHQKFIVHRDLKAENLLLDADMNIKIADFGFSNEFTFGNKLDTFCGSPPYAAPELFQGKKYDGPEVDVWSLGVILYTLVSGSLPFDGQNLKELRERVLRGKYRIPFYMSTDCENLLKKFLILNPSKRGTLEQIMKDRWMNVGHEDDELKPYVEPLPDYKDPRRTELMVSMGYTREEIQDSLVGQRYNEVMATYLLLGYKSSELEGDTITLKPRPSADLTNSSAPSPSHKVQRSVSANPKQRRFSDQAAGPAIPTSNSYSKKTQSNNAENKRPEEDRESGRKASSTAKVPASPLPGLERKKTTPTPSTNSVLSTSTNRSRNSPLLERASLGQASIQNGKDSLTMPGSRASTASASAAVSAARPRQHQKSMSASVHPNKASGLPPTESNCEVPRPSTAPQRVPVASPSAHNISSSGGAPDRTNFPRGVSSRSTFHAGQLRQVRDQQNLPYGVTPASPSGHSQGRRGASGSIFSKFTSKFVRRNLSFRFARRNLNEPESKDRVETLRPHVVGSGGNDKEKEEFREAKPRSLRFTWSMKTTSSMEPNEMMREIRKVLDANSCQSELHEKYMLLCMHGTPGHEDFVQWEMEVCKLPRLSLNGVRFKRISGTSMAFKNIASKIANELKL
Sequence of UniProt P35462 (whole entry, looked up): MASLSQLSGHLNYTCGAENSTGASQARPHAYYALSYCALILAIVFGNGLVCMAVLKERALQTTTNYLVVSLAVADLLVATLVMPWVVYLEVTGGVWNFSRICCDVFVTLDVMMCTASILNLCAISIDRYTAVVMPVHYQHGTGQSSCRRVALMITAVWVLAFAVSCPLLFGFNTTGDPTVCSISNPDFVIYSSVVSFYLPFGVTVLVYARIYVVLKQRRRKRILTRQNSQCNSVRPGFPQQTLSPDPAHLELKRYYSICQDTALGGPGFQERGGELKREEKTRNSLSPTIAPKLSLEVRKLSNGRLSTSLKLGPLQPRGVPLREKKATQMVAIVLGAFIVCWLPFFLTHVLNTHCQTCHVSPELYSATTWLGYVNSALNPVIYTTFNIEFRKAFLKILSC
Sequence of UniProt Q9H4B4 (whole entry, looked up): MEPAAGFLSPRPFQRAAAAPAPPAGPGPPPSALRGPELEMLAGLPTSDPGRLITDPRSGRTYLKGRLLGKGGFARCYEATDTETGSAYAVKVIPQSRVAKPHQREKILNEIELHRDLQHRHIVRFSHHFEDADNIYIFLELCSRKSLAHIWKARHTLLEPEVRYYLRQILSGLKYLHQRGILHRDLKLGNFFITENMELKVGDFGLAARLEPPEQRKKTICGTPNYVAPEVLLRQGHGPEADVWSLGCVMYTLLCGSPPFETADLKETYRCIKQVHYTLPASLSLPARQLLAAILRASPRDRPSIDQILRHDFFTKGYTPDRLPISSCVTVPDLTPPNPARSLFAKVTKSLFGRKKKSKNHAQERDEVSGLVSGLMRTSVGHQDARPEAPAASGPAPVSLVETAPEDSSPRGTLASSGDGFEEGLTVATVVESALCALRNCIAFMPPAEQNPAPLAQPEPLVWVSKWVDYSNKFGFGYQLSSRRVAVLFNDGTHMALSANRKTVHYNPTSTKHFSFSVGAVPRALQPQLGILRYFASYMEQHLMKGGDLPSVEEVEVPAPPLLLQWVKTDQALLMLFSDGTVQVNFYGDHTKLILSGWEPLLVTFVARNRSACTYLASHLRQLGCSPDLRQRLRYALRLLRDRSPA
Sequence of UniProt Q9Y5N1 (whole entry, looked up): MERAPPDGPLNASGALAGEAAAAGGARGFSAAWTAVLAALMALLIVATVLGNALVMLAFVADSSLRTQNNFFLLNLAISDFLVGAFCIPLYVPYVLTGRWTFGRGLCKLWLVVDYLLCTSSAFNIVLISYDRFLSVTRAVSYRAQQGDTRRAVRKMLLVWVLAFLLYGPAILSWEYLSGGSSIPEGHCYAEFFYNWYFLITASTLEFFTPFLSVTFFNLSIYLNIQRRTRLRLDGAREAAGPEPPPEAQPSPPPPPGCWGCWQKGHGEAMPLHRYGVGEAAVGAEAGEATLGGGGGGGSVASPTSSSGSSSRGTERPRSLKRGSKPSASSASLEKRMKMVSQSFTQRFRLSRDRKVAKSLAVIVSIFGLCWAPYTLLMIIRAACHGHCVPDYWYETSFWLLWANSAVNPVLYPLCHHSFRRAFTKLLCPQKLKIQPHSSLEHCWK
Sequence of UniProt Q16832 (whole entry, looked up): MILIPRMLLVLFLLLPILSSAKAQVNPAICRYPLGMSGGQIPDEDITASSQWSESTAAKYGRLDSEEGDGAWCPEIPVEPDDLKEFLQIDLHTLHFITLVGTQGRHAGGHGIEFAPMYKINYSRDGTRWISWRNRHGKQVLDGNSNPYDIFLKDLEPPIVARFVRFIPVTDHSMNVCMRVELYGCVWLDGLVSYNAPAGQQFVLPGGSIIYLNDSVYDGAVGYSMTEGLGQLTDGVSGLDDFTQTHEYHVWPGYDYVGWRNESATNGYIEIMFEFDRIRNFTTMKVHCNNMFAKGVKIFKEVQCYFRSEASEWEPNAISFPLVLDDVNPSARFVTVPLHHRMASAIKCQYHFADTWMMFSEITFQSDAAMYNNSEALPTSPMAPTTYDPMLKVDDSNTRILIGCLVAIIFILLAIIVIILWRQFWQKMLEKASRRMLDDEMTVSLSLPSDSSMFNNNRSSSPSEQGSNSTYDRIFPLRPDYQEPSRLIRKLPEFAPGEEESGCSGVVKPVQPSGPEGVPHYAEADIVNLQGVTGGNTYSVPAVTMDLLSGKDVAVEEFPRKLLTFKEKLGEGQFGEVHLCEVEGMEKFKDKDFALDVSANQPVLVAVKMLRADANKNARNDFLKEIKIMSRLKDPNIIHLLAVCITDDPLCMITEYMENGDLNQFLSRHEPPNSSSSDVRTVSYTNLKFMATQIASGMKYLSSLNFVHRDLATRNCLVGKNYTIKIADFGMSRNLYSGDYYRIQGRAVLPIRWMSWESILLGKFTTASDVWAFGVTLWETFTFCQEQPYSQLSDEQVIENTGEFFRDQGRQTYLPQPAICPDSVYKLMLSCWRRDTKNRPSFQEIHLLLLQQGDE
Sequence of UniProt P50406 (whole entry, looked up): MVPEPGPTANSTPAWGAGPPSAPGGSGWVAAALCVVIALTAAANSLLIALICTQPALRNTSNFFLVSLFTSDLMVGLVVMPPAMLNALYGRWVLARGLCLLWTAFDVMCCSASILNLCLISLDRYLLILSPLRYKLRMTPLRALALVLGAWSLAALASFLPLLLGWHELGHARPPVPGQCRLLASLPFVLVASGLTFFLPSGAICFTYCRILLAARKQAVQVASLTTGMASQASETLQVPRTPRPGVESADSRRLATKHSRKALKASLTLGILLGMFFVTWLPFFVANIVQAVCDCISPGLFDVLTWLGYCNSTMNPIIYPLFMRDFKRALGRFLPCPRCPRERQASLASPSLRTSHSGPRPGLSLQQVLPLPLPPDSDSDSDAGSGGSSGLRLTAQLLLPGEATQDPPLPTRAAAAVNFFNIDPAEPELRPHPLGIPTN

Block 1
Host: mouse
Sample: microsomes or S9
Concentration: 2 µM
Time: 0.5 h
SMILES | remaining compound [%]
CC1CCC(NS(=O)(=O)CC(=O)N(C)Cc2ccccn2)CC1 (stereo not drawn) | 14.7
O=C(CCn1c(Cc2ccccc2F)nc2cc(Cl)c(Cl)cc21)NCCN1CCOCC1 | 0.279
CCS(=O)(=O)CC(C)N(C)c1cnc(C#N)cn1 (stereo not drawn) | 52.6
CCOCCCN1C(=O)CN(S(C)(=O)=O)CC1(C)C(=O)NCc1ccc(C)cc1 (stereo not drawn) | 45.9
Fc1ccc2nc(-c3ccc4c(c3)OCO4)c3nn[nH]c3c2c1 | 4.45

Block 2
Cell line: HaCaT
Concentration: 100 µM
Time: 18 h
SMILES | viability
CC[C@]1(O)C[C@H]2CN(CCc3c([nH]c4ccccc34)[C@@](C(=O)OC)(c3cc4c(cc3OC)N(C=O)[C@H]3[C@@](O)(C(=O)OC)[C@H](OC(C)=O)[C@]5(CC)C=CCN6CC[C@]43[C@@H]65)C2)C1 | 72.5%
Nc1cccc2c1CN(C1CCC(=O)NC1=O)C2=O (stereo not drawn) | 99.8%
COc1nc(C)nc(Cl)c1N=C1NCCN1 | 119%
COc1ccc(CN2CCN(C(c3ccc(F)cc3)c3ccc(F)cc3)CC2)c(OC)c1OC | 34.2%
O=C(COc1ccc(Cl)cc1)N1CCN(Cc2ccc3c(c2)OCO3)CC1 | 90.7%

Block 3
SMILES: CCC(=O)N[C@@H]1CC[C@H](C(=O)N(C)c2ccc(-c3nc4ccccc4o3)cc2)C1
Observed: binding
Technique: radioligand binding
Concentration: 10 µM
target | inhibition [%]
HTR2B (Homo sapiens, UniProt P41595) | 19.1
HRH3 (Homo sapiens, UniProt Q9Y5N1) | 1.65
DRD3 (Homo sapiens, UniProt P35462) | 4.36
HTR6 (Homo sapiens, UniProt P50406) | 10.1

Block 4
Compound: Cn1cnc2cc3c(Nc4cccc(Br)c4)ncnc3cc21
Observed: enzyme activity
Action: inhibitor
Concentration: 0.5 µM
Reference: control
target | remaining activity
TXK (Homo sapiens, UniProt P42681) | 86.7%
NEK3 (Homo sapiens, UniProt P51956) | 88.2%
CLK3 (Homo sapiens, UniProt P49761) | 100%
MARK2 (Homo sapiens, UniProt Q7KZI7) | 96.6%
GRK4 (Homo sapiens, UniProt P32298) | 99.5%
Cyclin-dependent kinase 9, with cyclin K (CDK9, Homo sapiens, UniProt P50750) | 100%
DDR2 (Homo sapiens, UniProt Q16832) | 102%
MAPK1 (Homo sapiens, UniProt P28482) | 94.2%
MET (Homo sapiens, UniProt P08581) | 101%
PRKG2 (Homo sapiens, UniProt Q13237) | 63.6%
RPS6KA4 (Homo sapiens, UniProt O75676) | 96.3%
PLK3 (Homo sapiens, UniProt Q9H4B4) | 99.8%
PAK3 (Homo sapiens, UniProt O75914) | 98.5%

Some of these lines once more (block 3):
target | inhibition [%]
HTR6 (Homo sapiens, UniProt P50406) | 10.1
HRH3 (Homo sapiens, UniProt Q9Y5N1) | 1.65
